Published values from different studies.
Several values in a cell are separate wells, animals, samples, runs or records. Numbers after ± are the reported error.

SMILES = CN(CC(C)(C)C)N=O; organism = Escherichia coli; test = plate incorporation; system = WP2uvrA pKM101, methanol; conditions = 2500 µg/plate, without S9; measurement = revertant colonies per plate; result = 126 and 151
SMILES = CC(=O)N1CCC(C(=O)N2CCN3C(=O)c4cc(-c5ccccc5)ccc4NC(=O)C3C2)CC1 (stereo not shown); organism = Salmonella typhimurium; system = TA1537; conditions = 1581 µg/plate, together with: rat liver S9; scale = relative to: vehicle; measurement = fold increase in revertants; result = 1.7
SMILES = [Cl-].[Cl-].[Pt+2].[Ru+2].c1ccc(-c2nccnc2-c2ccccn2)nc1.c1cnc2c(c1)ccc1cccnc12.c1cnc2c(c1)ccc1cccnc12; organism = Danio rerio; system = embryos; conditions = 45 µM, 48 h; measurement = survival rate; result = 73.3 ± 2.8%
SMILES = COc1cccc(-c2n[nH]c(SCc3ccccn3)n2)c1OC; organism = Salmonella typhimurium; test = Ames test, plate incorporation; system = TA1535; conditions = 0.13 mg/plate, without S9; measurement = revertant colonies per plate; result = 13
SMILES = O=NN1CCN(C2CCCC2)CC1; organism = Escherichia coli; test = mutagenicity, Ames plate incorporation; system = WP2 uvrA pKM101; conditions = 5000 µg/plate, 3 d, without S9, methanol; measurement = revertant colonies per plate; result = 67.3 ± 11
SMILES = O=[N+]([O-])c1ccc(N2CCC(NCCC(O)c3ccc(F)c4ccccc34)CC2)c(C(F)(F)F)c1 (stereo not shown); organism = Salmonella typhimurium; test = SOS response, SOS/umu test; system = TA1535/pSK1002, TGA medium; conditions = 3.05e-05 mg/mL, 4 h, together with: 10% rat liver S9; scale = relative to: untreated; measurement = induction factor; result = 1.1
SMILES = CNC(=O)c1c(N(C)N=O)ncn1C; organism = Escherichia coli; test = mutagenicity, Ames plate incorporation; system = WP2 uvrA pKM101; conditions = 5000 µg/plate, without S9, methanol; measurement = revertant colonies per plate; result = 132 ± 4
SMILES = OC(CCN1CC=C(c2ccc(F)cc2)CC1)c1ccc(F)c2ccccc12 (stereo not shown); organism = Salmonella typhimurium; test = SOS/umu test; system = TA1535/pSK1002; conditions = 0.008 mg/mL, 4 h, with S9, full range; measurement = survival; result = 94.8%
SMILES = Cc1c(Cl)c(=O)oc2cc(OCCCC[Se]C#N)ccc12; organism = Caenorhabditis elegans; system = N2 Bristol, NGM with E. coli OP50; conditions = 10 µM, 3 days; measurement = developmental defects; result = 0%
SMILES = Cc1cc(C(=O)NC(C)(C)COc2cccc3c2C(N)=NS(=O)(=O)N3)cc(C)n1; organism = Escherichia coli; test = Ames test, initial; system = WP2 uvrA; conditions = 1500 µg/plate; scale = relative to: solvent control; measurement = revertant ratio; result = 1.2
SMILES = CC(C)C[C@H](NC(=O)[C@H](Cc1c[nH]cn1)NC(=O)[C@H](Cc1c[nH]cn1)NC(=O)[C@H](Cc1ccc(O)cc1)NC(=O)[C@@H](N)CS)C(=O)N[C@H](C(=O)N[C@@H](CC(C)C)C(=O)N[C@H](C(=O)N[C@H](C(=O)NCC(=O)NCC(=O)N[C@@H](CO)C(=O)O)C(C)C)[C@@H](C)O)C(C)C; organism = Epstein-Barr virus; system = B-NDG humanized mouse, EBV-infected; conditions = 20 mg/kg, day 28; measurement = body weight; result = 20.9 g and 22.1 g
SMILES = CC(C)N(C)N=O; organism = Escherichia coli; test = mutagenicity, Ames plate incorporation; system = WP2 uvrA pKM101; conditions = 1500 µg/plate, 3 d, without S9, methanol; measurement = revertant colonies per plate; result = 141 ± 12
SMILES = O=[N+]([O-])c1ccc(N2CCN(CCC(O)c3ccc(F)cc3)CC2)c(C(F)(F)F)c1 (stereo not shown); organism = Salmonella typhimurium; test = SOS/umu test; system = TA1535/pSK1002, TGA medium; conditions = 0.000488 mg/mL, 4 h, together with: 10% rat liver S9; measurement = survival; result = 128%
